Published values gathered from unrelated publications.
Parts stem from different laboratories: compare values within a part only.
UniProt O15197, sequence (whole entry, looked up): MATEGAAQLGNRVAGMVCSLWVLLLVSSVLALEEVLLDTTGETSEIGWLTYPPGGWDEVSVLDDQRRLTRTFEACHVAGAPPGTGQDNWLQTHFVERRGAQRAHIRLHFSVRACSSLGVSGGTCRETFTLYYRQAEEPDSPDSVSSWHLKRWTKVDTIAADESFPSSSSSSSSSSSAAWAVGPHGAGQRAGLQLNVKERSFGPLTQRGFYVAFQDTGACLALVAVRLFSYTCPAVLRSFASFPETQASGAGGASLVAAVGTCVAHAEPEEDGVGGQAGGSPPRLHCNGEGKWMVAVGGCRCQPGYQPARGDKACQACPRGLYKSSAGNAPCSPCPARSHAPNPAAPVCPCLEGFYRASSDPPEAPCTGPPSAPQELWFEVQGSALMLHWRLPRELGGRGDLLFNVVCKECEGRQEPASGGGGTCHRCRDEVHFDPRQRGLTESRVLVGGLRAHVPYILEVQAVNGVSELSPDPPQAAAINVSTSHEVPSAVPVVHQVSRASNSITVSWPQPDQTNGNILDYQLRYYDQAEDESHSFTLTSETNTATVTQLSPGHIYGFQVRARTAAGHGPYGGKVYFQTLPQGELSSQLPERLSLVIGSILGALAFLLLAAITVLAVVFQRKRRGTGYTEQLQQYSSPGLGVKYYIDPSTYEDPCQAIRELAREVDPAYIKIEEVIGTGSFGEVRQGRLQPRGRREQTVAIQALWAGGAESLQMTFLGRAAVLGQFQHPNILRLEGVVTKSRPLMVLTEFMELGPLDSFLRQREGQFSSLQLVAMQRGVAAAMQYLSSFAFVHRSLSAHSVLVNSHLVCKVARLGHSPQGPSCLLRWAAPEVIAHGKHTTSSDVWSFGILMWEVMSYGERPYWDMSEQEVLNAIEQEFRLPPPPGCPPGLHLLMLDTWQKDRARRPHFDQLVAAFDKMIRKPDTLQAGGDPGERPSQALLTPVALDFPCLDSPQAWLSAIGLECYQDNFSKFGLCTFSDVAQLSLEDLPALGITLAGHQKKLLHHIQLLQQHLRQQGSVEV
UniProt P42679, sequence (whole entry, looked up): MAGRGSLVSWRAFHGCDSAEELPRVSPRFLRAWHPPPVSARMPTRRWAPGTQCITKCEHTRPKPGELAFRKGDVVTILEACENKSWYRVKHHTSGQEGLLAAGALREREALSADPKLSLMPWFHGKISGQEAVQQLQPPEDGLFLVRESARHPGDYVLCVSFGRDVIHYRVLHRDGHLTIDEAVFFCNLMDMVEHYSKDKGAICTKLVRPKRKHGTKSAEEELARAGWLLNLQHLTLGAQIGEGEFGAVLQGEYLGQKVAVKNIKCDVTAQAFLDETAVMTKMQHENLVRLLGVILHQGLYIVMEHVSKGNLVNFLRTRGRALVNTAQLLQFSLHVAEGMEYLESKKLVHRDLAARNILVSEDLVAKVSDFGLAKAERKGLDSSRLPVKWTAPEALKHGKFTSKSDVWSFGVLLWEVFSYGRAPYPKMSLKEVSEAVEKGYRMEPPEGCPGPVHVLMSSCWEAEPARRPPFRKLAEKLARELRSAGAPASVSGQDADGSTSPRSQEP
UniProt Q96D53, sequence (whole entry, looked up): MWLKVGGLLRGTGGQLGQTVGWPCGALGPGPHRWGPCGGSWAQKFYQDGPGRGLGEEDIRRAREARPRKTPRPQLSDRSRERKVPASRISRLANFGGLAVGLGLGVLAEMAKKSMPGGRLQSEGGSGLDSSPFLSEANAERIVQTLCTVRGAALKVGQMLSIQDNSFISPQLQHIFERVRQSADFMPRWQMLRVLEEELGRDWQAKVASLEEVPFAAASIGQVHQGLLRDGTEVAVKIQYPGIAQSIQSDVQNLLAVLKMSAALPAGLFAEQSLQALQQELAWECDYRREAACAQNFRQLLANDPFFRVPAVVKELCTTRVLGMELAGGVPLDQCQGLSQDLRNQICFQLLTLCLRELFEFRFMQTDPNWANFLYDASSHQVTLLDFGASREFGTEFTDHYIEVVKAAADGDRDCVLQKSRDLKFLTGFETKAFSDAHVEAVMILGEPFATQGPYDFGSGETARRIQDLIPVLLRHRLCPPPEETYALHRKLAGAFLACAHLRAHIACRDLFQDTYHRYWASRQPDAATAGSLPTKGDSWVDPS
UniProt Q9UK32, sequence (whole entry, looked up): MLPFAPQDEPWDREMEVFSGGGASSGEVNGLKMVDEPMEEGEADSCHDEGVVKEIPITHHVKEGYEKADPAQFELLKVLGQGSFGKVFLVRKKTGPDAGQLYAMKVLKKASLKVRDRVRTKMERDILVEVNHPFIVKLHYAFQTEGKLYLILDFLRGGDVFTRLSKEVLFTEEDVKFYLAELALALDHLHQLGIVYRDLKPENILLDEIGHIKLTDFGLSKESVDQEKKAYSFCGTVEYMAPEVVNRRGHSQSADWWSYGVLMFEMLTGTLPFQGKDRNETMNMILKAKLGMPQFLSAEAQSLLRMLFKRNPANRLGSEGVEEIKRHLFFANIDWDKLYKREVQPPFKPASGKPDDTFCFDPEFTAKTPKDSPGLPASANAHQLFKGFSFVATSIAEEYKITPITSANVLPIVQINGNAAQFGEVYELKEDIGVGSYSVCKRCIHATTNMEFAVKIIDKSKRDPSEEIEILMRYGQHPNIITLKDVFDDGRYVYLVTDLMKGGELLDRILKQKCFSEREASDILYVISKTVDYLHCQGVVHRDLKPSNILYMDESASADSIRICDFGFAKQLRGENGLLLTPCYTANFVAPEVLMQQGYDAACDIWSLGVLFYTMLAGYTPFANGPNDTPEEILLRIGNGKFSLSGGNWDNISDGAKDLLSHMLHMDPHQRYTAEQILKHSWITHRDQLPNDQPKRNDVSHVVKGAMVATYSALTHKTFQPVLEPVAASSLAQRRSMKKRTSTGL
UniProt O14733, sequence (whole entry, looked up): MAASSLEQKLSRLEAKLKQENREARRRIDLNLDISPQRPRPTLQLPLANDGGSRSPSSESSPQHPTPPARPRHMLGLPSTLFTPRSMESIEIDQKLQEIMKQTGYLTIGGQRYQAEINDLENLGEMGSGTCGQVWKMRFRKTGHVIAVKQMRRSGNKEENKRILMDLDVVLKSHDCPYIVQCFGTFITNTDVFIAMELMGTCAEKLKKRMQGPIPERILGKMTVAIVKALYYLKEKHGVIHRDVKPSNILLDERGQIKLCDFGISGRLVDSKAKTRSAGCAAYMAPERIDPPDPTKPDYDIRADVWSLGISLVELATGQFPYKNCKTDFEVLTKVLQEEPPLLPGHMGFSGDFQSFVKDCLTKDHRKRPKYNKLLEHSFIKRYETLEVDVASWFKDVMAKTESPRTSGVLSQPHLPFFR
UniProt O94804, sequence (whole entry, looked up): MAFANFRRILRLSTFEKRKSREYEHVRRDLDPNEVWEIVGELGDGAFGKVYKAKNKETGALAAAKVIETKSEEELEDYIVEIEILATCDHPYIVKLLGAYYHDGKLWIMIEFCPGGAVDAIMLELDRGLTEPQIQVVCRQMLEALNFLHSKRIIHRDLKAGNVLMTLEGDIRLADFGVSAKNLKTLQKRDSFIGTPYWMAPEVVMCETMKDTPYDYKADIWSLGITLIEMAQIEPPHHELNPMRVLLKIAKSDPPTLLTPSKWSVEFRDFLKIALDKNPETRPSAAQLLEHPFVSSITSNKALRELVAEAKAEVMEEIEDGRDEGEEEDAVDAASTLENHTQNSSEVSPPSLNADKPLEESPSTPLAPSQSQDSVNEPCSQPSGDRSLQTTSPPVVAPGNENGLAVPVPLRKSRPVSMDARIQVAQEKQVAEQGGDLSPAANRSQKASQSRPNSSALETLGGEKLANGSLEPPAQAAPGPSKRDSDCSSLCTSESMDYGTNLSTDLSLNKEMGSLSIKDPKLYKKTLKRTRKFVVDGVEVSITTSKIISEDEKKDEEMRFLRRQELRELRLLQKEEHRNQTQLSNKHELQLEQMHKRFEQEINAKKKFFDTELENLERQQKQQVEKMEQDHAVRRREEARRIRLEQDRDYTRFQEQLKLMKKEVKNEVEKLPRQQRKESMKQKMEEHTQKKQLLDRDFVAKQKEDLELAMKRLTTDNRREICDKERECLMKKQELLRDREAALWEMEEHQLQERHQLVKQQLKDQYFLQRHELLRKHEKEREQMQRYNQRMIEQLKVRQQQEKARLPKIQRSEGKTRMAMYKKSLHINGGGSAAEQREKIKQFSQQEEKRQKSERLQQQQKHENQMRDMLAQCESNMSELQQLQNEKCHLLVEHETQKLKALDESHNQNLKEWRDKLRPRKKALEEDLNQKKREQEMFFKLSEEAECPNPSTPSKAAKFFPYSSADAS

Set 1 — cell line: sample D normal colon organoid; technique: CellTiter-Glo; tested at: 1 µM; setting: mean of replicates; reference: DMSO
Compound | viability [%]
CC(=O)N1CCC(c2ccc(C(=O)NC3=NCCN3)cc2C(F)(F)F)CC1 | 105
Cc1nc(C2CCN(C(=O)c3ccc(OC(F)(F)F)cc3N)CC2)c2ncc(N3CCN(C)CC3)cc2n1 | 85.6
C[C@H](c1ccc(F)cc1)N(Cc1ccc(Cl)c(C(=O)O)c1)C(=O)c1cnc2ccccc2c1 | 112
C[C@@H](NC(=O)Nc1cc2[nH]ncc2c(CO)n1)c1ccccc1 | 106
C[C@H](c1ccnc(Nc2nc3ccc(-c4cc(N(C)C)ncn4)cc3[nH]2)c1)N1CCN(C(=O)CC(F)(F)F)CC1 | 87.8
Cc1noc([C@H]2C[C@@H](c3ccc(C(F)(F)F)cc3)CN(C(=O)N3CCS(=O)(=O)C3)C2)n1 | 91.1
CCCCN(Cc1ccccc1)C(=O)c1ccc(S(=O)(=O)Nc2ccccc2)cc1 | 113
Cn1cnc2c(F)c(Nc3ccc(Br)cc3Cl)c(C(=O)NOCCO)cc21 | 92.3
C[C@@]1(Cc2ccc(C#N)cc2)C(=O)N(c2cc(Cl)cc(Cl)c2)c2ncc(C(=O)NC3(c4nc(C5CCC5)no4)CC3)n21 | 84.2
COc1cc(-c2cn(C3CCc4c(F)cccc4N(CC(F)(F)F)C3=O)nn2)ccc1-n1cnc(C)c1 (centres unmarked) | 119
CO[C@H]1CC[C@H](CNc2ccc(S(=O)(=O)NC(=O)c3ccc(N4CCN(CC5=C(c6ccc(Cl)cc6)CC(C)(C)CC5)CC4)cc3Oc3cnc4[nH]ccc4c3)cc2[N+](=O)[O-])CC1 | 125
COc1cc(-c2cn(C3CCc4ccccc4N(CC(F)(F)F)C3=O)nn2)ccc1-n1ccc(C)n1 (centres unmarked) | 77.9
CN1CCN(c2cnc3c(C4CCN(C(=O)c5ccc(OC(F)(F)F)cc5N)CC4)ncnc3c2)CC1 | 97.3
Cn1cncc1[C@](O)(COc1ccc(C#N)cc1-c1ccc(OC(F)(F)F)cc1)c1ccc(C#N)cc1 | 52.8
CC(C)(O)c1cncc(-c2nc3ccc(F)cc3n2C2CC2)c1 | 102

Set 2 — action: inhibitor; tested at: 1 µM
SMILES: CC#CC(=O)N1CCC[C@H]1c1nc(-c2ccc(C(=O)Nc3ccccn3)cc2)c2c(N)nccn12
target | observed | inhibition
CAMK2D (Homo sapiens, UniProt Q13557) | enzyme activity | 0%
Ribosomal protein S6 kinase alpha-6, N-terminal kinase domain (RPS6KA6, Homo sapiens, UniProt Q9UK32) |  | 34%
MAP3K14 (Homo sapiens, UniProt Q99558) | enzyme activity | 4%
VRK2 (Homo sapiens, UniProt Q86Y07) | enzyme activity | 32%
PIP4K2B (Homo sapiens, UniProt P78356) | enzyme activity | 4%
CAMKK1 (Homo sapiens, UniProt Q8N5S9) | enzyme activity | 0%
COQ8B (Homo sapiens, UniProt Q96D53) | enzyme activity | 0%
SRPK1 (Homo sapiens, UniProt Q96SB4) | enzyme activity | 0%
MATK (Homo sapiens, UniProt P42679) | enzyme activity | 26%
CAMK2A (Homo sapiens, UniProt Q9UQM7) | enzyme activity | 0%
MAP3K9 (Homo sapiens, UniProt P80192) | enzyme activity | 10%
CASK (Homo sapiens, UniProt O14936) | enzyme activity | 39%
MAPK8 (Homo sapiens, UniProt P45983) | enzyme activity | 19%
GSK3A (Homo sapiens, UniProt P49840) | enzyme activity | 1%
EPHA3 (Homo sapiens, UniProt P29320) | enzyme activity | 0%
ACVR2A (Homo sapiens, UniProt P27037) | enzyme activity | 0%

Set 3 — observed: enzyme activity; action: inhibitor; tested at: 0.5 µM; reference: control
Target: Protein kinase C epsilon type (PRKCE, Homo sapiens, UniProt Q02156)
UniProt Q02156, sequence (whole entry, looked up): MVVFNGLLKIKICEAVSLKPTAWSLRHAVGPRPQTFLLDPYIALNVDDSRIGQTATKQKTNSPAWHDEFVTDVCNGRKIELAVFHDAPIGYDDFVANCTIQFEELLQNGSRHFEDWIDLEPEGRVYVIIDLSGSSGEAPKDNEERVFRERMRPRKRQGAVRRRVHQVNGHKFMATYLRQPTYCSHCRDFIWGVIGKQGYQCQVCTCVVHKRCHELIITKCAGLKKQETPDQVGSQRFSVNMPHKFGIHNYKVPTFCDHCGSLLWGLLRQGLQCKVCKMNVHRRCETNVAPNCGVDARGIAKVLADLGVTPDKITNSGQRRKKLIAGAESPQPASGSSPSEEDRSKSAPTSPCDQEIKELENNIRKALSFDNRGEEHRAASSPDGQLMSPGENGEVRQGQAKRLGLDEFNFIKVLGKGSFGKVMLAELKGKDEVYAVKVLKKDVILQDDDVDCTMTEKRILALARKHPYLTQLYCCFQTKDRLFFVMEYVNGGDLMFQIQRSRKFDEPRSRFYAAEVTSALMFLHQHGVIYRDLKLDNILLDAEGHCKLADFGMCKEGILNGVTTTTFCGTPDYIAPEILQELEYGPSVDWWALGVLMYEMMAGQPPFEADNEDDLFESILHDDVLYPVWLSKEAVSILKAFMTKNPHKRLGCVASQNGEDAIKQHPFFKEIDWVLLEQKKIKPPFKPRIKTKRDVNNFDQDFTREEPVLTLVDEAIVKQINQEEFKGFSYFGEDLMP
Structure (SMILES) | remaining activity [%]
NC(=O)c1ccc(-c2nc(-c3ccc4c(c3)OCCO4)c(-c3ccccn3)[nH]2)cc1 | 93.1
Nc1nc(Nc2ccc(S(N)(=O)=O)cc2)nn1C(=S)Nc1c(F)cccc1F | 11.5
O=C1c2ccccc2-c2nc3nnnn3nc21 | 99
c1cc(-c2cnn3cc(-c4ccc(OCCN5CCCCC5)cc4)cnc23)ccn1 | 106
NC(=O)c1cccc(-c2cc(Nc3ccc(OC(F)(F)F)cc3)ncn2)c1 | 111
CNc1cc2c(Nc3cccc(Br)c3)ncnc2cn1 | 99.8
CC(C)n1cnc2c(Nc3cccc(Cl)c3)nc(NCCO)nc21 | 93.6
CCN(CC)CCCCN1c2ccccc2Oc2ccc(Cl)cc21 | 109
C[C@@H](N)[C@H]1CC[C@H](C(=O)Nc2ccncc2)CC1 | 40.2
O=Nc1c(-c2c(O)[nH]c3ccccc23)[nH]c2ccccc12 | 96.5
CC(C)N(CCC(=O)c1ccc2ccccc2c1)Cc1ccccc1 | 95
O=c1c(-c2ccc(F)cc2)c(-c2ccncc2)[nH]n1-c1ccc(Cl)cc1 | 96.7
COc1cc2c(N3CCN(C(=O)Nc4ccc(OC(C)C)cc4)CC3)ncnc2cc1OCCCN1CCCCC1 | 104
FC(F)(F)c1ccc(/C=C/c2nc(COc3ccc(CCCCn4ccnn4)cc3)co2)cc1 | 101
N#C/C(=C(/N)SC1C=CC=CC1)c1cccc(C(O)c2ccncc2)c1 (centres unmarked) | 104
O=C(O)/C=C/c1cc(Br)c(Br)c(Br)c1Br | 88.6
Clc1ccc(Nc2nnc(Cc3ccncc3)c3ccccc23)cc1 | 100
N#CC(c1ccnc(NCCc2cccnc2)n1)c1nc2ccccc2s1 (centres unmarked) | 92.1
O=C1NC(=O)/C(=C/c2ccc3c(c2)OC(F)(F)O3)S1 | 103
CC(C)(C)c1nc2c3cc[nH]c(=O)c3c3cc(F)ccc3c2[nH]1 | 51.4
COc1cc2c(Nc3ccc(Br)cc3F)ncnc2cc1OCC1CCN(C)CC1 | 100
O=C(c1ccccc1)c1ccc(N2CCOCC2)cc1O | 92.3
CCCCc1c(-c2ccc(O)cc2)[nH]c2nccnc12 | 107

Set 4 — tested at: 1 µM
Structure (SMILES): CN1CCN(C(=O)c2ccc(NC(=O)Nc3ccc(N(C)c4ccnc(Nc5ccc(CS(C)(=O)=O)cc5)n4)cc3)cc2)CC1
target | technique | item | setting | reference | remaining binding
FES (Homo sapiens, UniProt P07332) | competitive binding panel |  |  | vehicle | 67%
MAP2K7 (Homo sapiens, UniProt O14733) | competitive binding panel | MKK7 |  | vehicle | 95%
EPHB6 (Homo sapiens, UniProt O15197) | competitive binding panel |  |  | vehicle | 4.3%
SYK (Homo sapiens, UniProt P43405) | competitive binding panel |  |  | vehicle | 34%
PRKD1 (Homo sapiens, UniProt Q15139) | competitive binding panel |  |  | vehicle | 100%
BTK (Homo sapiens, UniProt Q06187) | competitive binding panel |  |  | vehicle | 50%
PRKAA1 (Homo sapiens, UniProt Q13131) | competitive binding |  | AMPK-alpha1 |  | 82%
PKN1 (Homo sapiens, UniProt Q16512) | competitive binding panel |  |  | vehicle | 70%
STK10 (Homo sapiens, UniProt O94804) | competitive binding |  | LOK |  | 0.4%
PLK3 (Homo sapiens, UniProt Q9H4B4) | competitive binding panel |  |  | vehicle | 100%
TTK (Homo sapiens, UniProt P33981) | competitive binding panel |  |  | vehicle | 61%

Some of these lines once more (set 4):
target | technique | item | setting | reference | remaining binding
MAP2K7 (Homo sapiens, UniProt O14733) | competitive binding panel | MKK7 |  | vehicle | 95%
PRKAA1 (Homo sapiens, UniProt Q13131) | competitive binding |  | AMPK-alpha1 |  | 82%
STK10 (Homo sapiens, UniProt O94804) | competitive binding |  | LOK |  | 0.4%
PLK3 (Homo sapiens, UniProt Q9H4B4) | competitive binding panel |  |  | vehicle | 100%
FES (Homo sapiens, UniProt P07332) | competitive binding panel |  |  | vehicle | 67%
BTK (Homo sapiens, UniProt Q06187) | competitive binding panel |  |  | vehicle | 50%
PKN1 (Homo sapiens, UniProt Q16512) | competitive binding panel |  |  | vehicle | 70%
